Assay results gathered from unrelated publications.
Lines come from different studies, so protocols differ. pEC50, pIC50: −log10 of the molar value.
Sequence of UniProt P00519 (whole entry, unmodified, looked up): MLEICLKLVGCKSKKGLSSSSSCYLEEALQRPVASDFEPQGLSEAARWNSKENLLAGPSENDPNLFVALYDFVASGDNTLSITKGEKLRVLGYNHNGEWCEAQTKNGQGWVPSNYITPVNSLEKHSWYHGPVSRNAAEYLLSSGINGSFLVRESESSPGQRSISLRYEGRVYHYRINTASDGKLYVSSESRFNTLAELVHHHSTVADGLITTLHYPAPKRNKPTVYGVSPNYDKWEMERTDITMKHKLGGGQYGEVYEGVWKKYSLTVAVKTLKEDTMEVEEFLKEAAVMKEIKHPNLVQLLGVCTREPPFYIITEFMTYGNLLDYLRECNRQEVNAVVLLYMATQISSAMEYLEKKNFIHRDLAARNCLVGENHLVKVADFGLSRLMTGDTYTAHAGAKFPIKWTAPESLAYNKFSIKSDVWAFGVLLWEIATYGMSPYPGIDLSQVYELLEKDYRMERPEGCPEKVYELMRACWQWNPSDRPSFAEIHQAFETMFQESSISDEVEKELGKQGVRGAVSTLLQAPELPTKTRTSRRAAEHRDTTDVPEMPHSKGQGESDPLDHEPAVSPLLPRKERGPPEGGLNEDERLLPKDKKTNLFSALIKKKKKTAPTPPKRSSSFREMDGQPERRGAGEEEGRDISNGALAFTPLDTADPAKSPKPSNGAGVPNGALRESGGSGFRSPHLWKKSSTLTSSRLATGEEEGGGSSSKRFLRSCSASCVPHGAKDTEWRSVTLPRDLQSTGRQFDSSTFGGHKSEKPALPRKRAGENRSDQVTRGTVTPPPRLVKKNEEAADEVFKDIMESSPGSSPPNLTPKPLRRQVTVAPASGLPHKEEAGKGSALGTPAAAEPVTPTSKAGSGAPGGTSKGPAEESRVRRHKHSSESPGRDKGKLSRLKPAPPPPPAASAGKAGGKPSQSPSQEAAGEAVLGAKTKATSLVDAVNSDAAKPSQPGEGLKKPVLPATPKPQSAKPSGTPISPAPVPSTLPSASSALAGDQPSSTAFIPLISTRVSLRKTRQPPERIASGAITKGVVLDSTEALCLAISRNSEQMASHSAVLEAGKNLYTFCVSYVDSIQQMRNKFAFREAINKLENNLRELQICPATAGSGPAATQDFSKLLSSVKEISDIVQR
Sequence of UniProt Q07002 (whole entry, looked up): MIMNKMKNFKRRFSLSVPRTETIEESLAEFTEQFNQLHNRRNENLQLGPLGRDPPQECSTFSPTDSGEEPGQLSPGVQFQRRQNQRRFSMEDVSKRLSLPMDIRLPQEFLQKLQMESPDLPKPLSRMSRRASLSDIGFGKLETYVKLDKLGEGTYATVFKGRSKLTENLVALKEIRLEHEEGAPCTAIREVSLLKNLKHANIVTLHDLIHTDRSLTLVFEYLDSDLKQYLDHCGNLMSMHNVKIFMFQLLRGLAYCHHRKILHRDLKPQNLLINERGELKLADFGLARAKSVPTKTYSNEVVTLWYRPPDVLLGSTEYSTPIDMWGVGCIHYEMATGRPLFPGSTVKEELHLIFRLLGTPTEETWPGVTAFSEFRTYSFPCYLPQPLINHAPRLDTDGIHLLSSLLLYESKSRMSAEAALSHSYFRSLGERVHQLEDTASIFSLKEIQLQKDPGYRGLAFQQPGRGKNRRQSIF
Sequence of UniProt P42338 (whole entry, looked up): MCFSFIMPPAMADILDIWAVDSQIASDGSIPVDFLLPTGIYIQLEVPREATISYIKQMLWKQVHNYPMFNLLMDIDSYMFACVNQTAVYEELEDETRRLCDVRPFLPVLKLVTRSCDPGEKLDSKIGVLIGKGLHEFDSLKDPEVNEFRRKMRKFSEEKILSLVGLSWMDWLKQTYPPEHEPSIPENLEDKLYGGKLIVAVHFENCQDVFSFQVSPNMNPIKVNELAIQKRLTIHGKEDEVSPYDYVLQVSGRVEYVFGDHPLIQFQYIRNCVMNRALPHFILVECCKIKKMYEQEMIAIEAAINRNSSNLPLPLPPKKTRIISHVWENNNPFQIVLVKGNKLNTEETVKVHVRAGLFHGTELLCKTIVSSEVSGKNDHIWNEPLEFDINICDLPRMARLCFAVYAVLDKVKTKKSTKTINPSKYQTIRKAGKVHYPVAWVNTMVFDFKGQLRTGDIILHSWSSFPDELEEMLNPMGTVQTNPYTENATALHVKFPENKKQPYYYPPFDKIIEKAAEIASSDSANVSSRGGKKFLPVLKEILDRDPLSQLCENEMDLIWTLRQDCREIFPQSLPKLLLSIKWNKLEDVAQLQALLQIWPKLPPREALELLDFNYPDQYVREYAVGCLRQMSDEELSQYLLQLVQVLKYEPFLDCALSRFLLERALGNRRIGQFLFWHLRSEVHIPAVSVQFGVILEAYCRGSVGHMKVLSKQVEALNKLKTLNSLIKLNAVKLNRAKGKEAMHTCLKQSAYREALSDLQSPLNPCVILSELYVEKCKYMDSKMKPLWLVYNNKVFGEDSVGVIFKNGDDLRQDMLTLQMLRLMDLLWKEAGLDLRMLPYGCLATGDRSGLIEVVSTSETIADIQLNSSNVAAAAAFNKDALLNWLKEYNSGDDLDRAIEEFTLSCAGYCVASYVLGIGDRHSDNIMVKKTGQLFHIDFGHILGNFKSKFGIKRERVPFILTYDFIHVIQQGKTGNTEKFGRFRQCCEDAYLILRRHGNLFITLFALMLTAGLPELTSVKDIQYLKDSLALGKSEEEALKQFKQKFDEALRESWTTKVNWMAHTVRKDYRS

| Structure (SMILES) | target or system | assay | setting | endpoint | value |
| --- | --- | --- | --- | --- | --- |
| Cc1[nH]c(C)c(-c2ccc(OCc3ccccc3)cc2)c(=O)c1Br | HEK293 | cell growth or viability | – | pIC50 | < 5.00 |
| O=C(O)c1ccc(-c2nn(Cc3ccccc3)c3ccccc23)o1 | RBE | cell growth or viability, ATP luminescence | 46 µM, 72 h | inhibition | 4% |
| COc1cc(Nc2ncc3c(n2)-c2ccc(Cl)cc2C(c2c(F)cccc2OC)=NC3)ccc1C(=O)O | MB002 | cell growth or viability | 7 days | pIC50 | 7.83 |
| Cc1ccc2[nH]c(C)c(Br)c(=O)c2c1 | HEK293 | cell growth or viability | – | pIC50 | < 5.00 |
| COc1cc(-c2cncc3c2CN(C)Cc2cc(N4CCNCC4)ccc2-3)cc(OC)c1OC | Cyclin-dependent kinase 18, with cyclin Y (CDK18, Homo sapiens, UniProt Q07002) | enzyme activity, inhibitor | 1 µM | remaining activity | 97% |
| O=C(Nc1ccc(Oc2nnc(-c3ccc(Cl)cc3)c3ccccc23)cc1)c1cccc([N+](=O)[O-])c1 | MCF7 | cell growth or viability, MTT | 10 µM, 24 h | viability | 7.97% |
| Cc1c(Cc2ccccc2)c(=O)oc2c(C)c(OCC(=O)NN=Cc3ccc(Cl)cc3)ccc12 | PC-3 | cell growth or viability, MTT | 125 µg/mL | viability | 35.1% |
| Cc1nc(C)c(-c2ccc(Oc3ccc(OC(F)(F)F)cc3)cc2)c(O)c1I | HEK293 | cell growth or viability | – | pIC50 | < 5.00 |
| Cc1cc([C@@H](C)Nc2ccccc2C(=O)O)c2nc(N3CCC(F)(F)CC3)c(C#N)c(=O)n2c1 | Tyrosine-protein kinase ABL1, phosphorylated (ABL1, Homo sapiens, UniProt P00519, E255K) | binding, competition with immobilised ligand | 1 µM | remaining binding | 94% |
| CCNC(=S)NNC(=O)COc1ccc2c(C)c(CC)c(=O)oc2c1C | PC-3 | cell growth or viability, MTT | 62.5 µg/mL | viability | 93.2% |
| CNc1ncc2c(/C=C/C(=O)N3CCC(OC)CC3)nn(Cc3ccccc3)c2n1 | FLO-1 | cell growth or viability, resazurin | 5 days | pEC50 | 5.09 |
| CCc1c(C)c2ccc(OCc3nnc(S)n3N)c(C)c2oc1=O | PC-3 | cell growth or viability, MTT | 1000 µg/mL | viability | 3.26% |
| CC(C)CC1c2[nH]c3ccccc3c(=O)c2CN1C(=O)OC(C)(C)C (stereo not shown) | HEK293 | cell growth or viability | – | pIC50 | < 5.00 |
| Cc1c(Cc2ccccc2)c(=O)oc2c(C)c(OCC(=O)NN=Cc3ccco3)ccc12 | PC-3 | cell growth or viability, MTT | 1000 µg/mL | viability | 7.23% |
| COc1ccc(-c2cc(-c3ccc(S(C)(=O)=O)cc3)cnc2N)cn1 | HEK293 | cell growth or viability | – | pIC50 | < 5.00 |
| CC(=NNC(=O)c1ccncc1)c1ccc(Nc2nnc(-c3ccc(Cl)cc3)c3ccccc23)cc1 | MCF7 | cell growth or viability, MTT | 1.25 µM, 24 h | viability | 4.65% |
| Cc1cccc(N(O)N=Nc2ccc(S(=O)(=O)Nc3onc(C)c3C)cc2)c1 | – | ABTS scavenging | 180 µg/mL | inhibition | 54.2% |

| Structure (SMILES) | target or system | assay | setting | endpoint | value |
| --- | --- | --- | --- | --- | --- |
| CC(=O)Nc1ccc(Oc2nnc(-c3ccc(Cl)cc3)c3ccccc23)cc1 | MCF7 | cell growth or viability, MTT | 2.5 µM, 24 h | viability | 5.8% |
| COc1cccc(Cn2nc(-c3ccc(CO)o3)c3ccccc32)c1 | RBE | cell growth or viability, ATP luminescence | 46 µM, 72 h | inhibition | 76% |
| CC(=NNC(=O)COc1ccc2c(C)c(Cc3ccccc3)c(=O)oc2c1C)c1ccc(Br)cc1 | PC-3 | cell growth or viability, MTT | 1000 µg/mL | viability | 1.91% |
| Cc1[nH]c(C)c(-c2ccc(Oc3ccc(F)cc3)cc2)c(=O)c1Cl | HEK293 | cell growth or viability | – | pIC50 | < 5.00 |
| CCC(=CCc1c(O)cc2c(c1O)C(=O)C[C@H](c1ccccc1O)O2)CC | HeLa | cell growth or viability, MTT | 60 µM, 48 h | inhibition | 66.9% |
| CCOc1ccc2c(C)c(CC)c(=O)oc2c1C | PC-3 | cell growth or viability, MTT | 62.5 µg/mL | viability | 99.9% |
| CC(=NNC(=O)c1ccccc1Br)c1ccc(Nc2nnc(-c3ccc(Cl)cc3)c3ccccc23)cc1 | MCF7 | cell growth or viability, MTT | 0.312 µM, 24 h | viability | 93.4% |
| CCCCc1ccc(-c2ccc(-c3c(C)[nH]c(C)c(Br)c3=O)cn2)cc1 | HEK293 | cell growth or viability | – | pIC50 | < 5.00 |
| CN(O)N=Nc1ccc(S(=O)(=O)Nc2nccs2)cc1 | – | ABTS scavenging | 180 µg/mL | inhibition | 84.6% |
| CC(=NNC(=O)c1ccc(N)cc1)c1ccc(Nc2nnc(-c3ccc(Cl)cc3)c3ccccc23)cc1 | MCF7 | cell growth or viability, MTT | 2.5 µM, 24 h | viability | 5.36% |
| CCc1c(C)c2ccc(OCC=Cc3ccccc3)c(C)c2oc1=O | PC-3 | cell growth or viability, MTT | 31.25 µg/mL | viability | 93.9% |
| C=CC(=O)N1CCC(COCC(=O)N2CCN(c3nc(-c4cnc(N)nc4C(F)F)nc(N4CCOC[C@@H]4C)n3)CC2)CC1 | PIK3CB (Homo sapiens, UniProt P42338) | binding, competition with immobilised ligand | 1 µM | remaining binding | 0.55% |
| O=C(C=Cc1ccccc1)Nc1ccc(Oc2nnc(-c3ccc(Cl)cc3)c3ccccc23)cc1 | MCF7 | cell growth or viability, MTT | 0.312 µM, 24 h | viability | 100% |
| CSc1ccc(C=CC(=O)NC(=O)c2ccccc2O)cc1 | HEK293 | cell growth or viability | – | pIC50 | < 5.00 |
| NC(=S)NN=C(CS(=O)(=O)c1ccccc1)c1ccc(F)cc1 | WM 266-4 | cell growth or viability, MTT | 6.3 µM, 48 h | viability | 38.5% |
| CC(=NNC(=O)c1cccnc1)c1ccc(Nc2nnc(-c3ccc(Cl)cc3)c3ccccc23)cc1 | MCF7 | cell growth or viability, MTT | 1.25 µM | cell death | 84.6% |
| CNc1ncc2c(/C=C/C(=O)N3CCC(OC)CC3)nn(Cc3cccc(OC)c3)c2n1 | FLO-1 | cell growth or viability, resazurin | 5 days | pEC50 | 5.33 |

For quick reference, copied from above:
| Structure (SMILES) | target or system | assay | setting | endpoint | value |
| --- | --- | --- | --- | --- | --- |
| CN(O)N=Nc1ccc(S(=O)(=O)Nc2nccs2)cc1 | – | ABTS scavenging | 180 µg/mL | inhibition | 84.6% |
| CC(=NNC(=O)c1ccc(N)cc1)c1ccc(Nc2nnc(-c3ccc(Cl)cc3)c3ccccc23)cc1 | MCF7 | cell growth or viability, MTT | 2.5 µM, 24 h | viability | 5.36% |
| CCc1c(C)c2ccc(OCC=Cc3ccccc3)c(C)c2oc1=O | PC-3 | cell growth or viability, MTT | 31.25 µg/mL | viability | 93.9% |
| C=CC(=O)N1CCC(COCC(=O)N2CCN(c3nc(-c4cnc(N)nc4C(F)F)nc(N4CCOC[C@@H]4C)n3)CC2)CC1 | PIK3CB (Homo sapiens, UniProt P42338) | binding, competition with immobilised ligand | 1 µM | remaining binding | 0.55% |
| O=C(C=Cc1ccccc1)Nc1ccc(Oc2nnc(-c3ccc(Cl)cc3)c3ccccc23)cc1 | MCF7 | cell growth or viability, MTT | 0.312 µM, 24 h | viability | 100% |
